Published values of several laboratories.
A part holds a random share of what one study measured.

Series 1 — cell line: HEK-293T-ACE2; tested at: concentration not given; baseline: vehicle
The cell number of `CCC(CC)[C@H](NC(C)=O)[C@@H]1[C@H](O)[C@@H](C(=O)O)C[C@H]1NC(=N)N.O.O.O` is reported as 94.2%.
`COC(=O)N[C@H](C(=O)N[C@@H](Cc1ccccc1)[C@@H](O)CN(Cc1ccc(-c2ccccn2)cc1)NC(=O)[C@@H](NC(=O)OC)C(C)(C)C)C(C)(C)C.O=S(=O)(O)O` gave a cell number of 96.2%.
With `C=CCN1CC[C@]23c4c5ccc(O)c4O[C@H]2[C@@H](OCCOCCOCCOCCOCCOCCOCCOC)CC[C@@]3(O)[C@H]1C5.O=C(O)C(=O)O` the cell number was 101%.
For `Cc1nc2n(c(=O)c1CCN1CCC(c3noc4cc(F)ccc34)CC1)CCCC2`, the cell number was 99.5%.
With `O=C([O-])/C=C/C(=O)[O-].[Fe+2]` the cell number was 92.6%.

Series 2 — read-out: enzyme activity; action: inhibitor; tested at: 20 µM
Target: Replicase polyprotein 1ab, main protease (rep, Severe acute respiratory syndrome coronavirus 2, UniProt P0DTD1)
For `CS/C(N)=C(C#N)/C(C#N)=C(\N)SC`, the inhibition was -9.69%.
The inhibition of `CN1C(=O)C(N2CCCCC2)S/C1=C\C(=O)O` (stereo not shown) is reported as 3.46%.
For `Cc1ccc(-n2sc(=O)n(Cc3ccc(F)cc3)c2=O)cc1`, the inhibition was 2.39%.
For `O=C(O)C(=O)CBr`, the inhibition was -18.7%.
For `CN1CCN(C(=O)c2ccc(-c3ccc4c(C=O)c(O)ccc4c3)s2)CC1`, the inhibition was 66.5%.
The inhibition of `CCCCCCCCCCCCCCCC[n+]1ccn(Cc2ccccc2)c1C` is reported as 36.3%.

Series 3 — method: protein-binding microarray; molecule type: double-stranded DNA, one strand shown; matrix: in vitro; tested at: 250 nM; notes: 60-bp whole probe; with: salmon DNA 0.4 mg/ml; baseline: random background probes; reading: higher = stronger binding; all sequences stand within: GCCTAGCAC … GTCTTGATTCGCTTGACGCTGCTG
Target: Interferon regulatory factor 7, full length, phosphomimetic (IRF7, Homo sapiens, UniProt Q92985, residues 1-503, S101K/S471D/S472D/S475D/S476D/S477D/S483D/S484D/S487D)
Residues (chain): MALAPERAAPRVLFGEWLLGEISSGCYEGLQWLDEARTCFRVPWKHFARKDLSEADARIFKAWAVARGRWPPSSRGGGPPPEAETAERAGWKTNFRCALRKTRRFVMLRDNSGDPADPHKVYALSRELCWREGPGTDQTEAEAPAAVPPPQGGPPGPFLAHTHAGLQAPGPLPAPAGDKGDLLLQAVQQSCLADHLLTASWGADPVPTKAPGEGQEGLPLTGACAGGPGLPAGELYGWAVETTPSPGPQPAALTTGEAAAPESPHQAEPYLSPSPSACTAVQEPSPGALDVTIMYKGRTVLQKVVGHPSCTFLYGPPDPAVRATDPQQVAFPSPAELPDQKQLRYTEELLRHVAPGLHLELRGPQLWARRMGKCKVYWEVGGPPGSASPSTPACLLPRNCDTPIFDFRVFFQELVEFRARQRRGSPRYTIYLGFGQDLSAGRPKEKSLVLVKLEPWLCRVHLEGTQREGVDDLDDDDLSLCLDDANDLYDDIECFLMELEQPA
With `TTAGGTCTCCTTTTCCTTTTGTGCTAG` the log fluorescence was 2.45 z-score.
`GACGGTCTCGGACTTGGGACGTGCTAG` gave a log fluorescence of -0.035 z-score.
With `CTTCATGTTGCTCTCCGGGGGTGCTAG` the log fluorescence was 0.848 z-score.
`TCATTTATGTACTCTCTCACTGTGCTA` has a log fluorescence of 1.07 z-score.
For `GACGAACTGGGGTATCGAGATGTGCTA`, the log fluorescence was -0.166 z-score.
`GACGGTTTCCTTTTCCTGATGTGCTAG` has a log fluorescence of 6.48 z-score.
For `ACATTCCATGAGCCCACTGGGTGCTAG`, the log fluorescence was 1.13 z-score.
For `TCATGCTTCAGGTTTACCACTGTGCTA`, the log fluorescence was -0.496 z-score.

Series 4 — method: RNA Bind-n-Seq; molecule type: RNA; matrix: in vitro; tested at: 365 nM; baseline: no-protein control; reading: higher = stronger binding
Target: RNA binding protein fox-1 homolog 2, RRM domain, GST-SBP tag (RBFOX2, Homo sapiens, UniProt O43251-10, residues 100-194)
Notes: natural RNA segment, single round, ends assumed
All sequences stand within: GGGAGUUCUACAGUCCGACGAUC … UGGAAUUCUCGGGUGCCAA
Construct (chain): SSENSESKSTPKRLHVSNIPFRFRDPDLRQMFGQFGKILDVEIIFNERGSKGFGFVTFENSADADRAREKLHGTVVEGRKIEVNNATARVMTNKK
`CUUCCAGCUCACCUUGAGCAGCCUCAGAUCAUCUCUGUCACUCUGGAAGGGACACCCCAGCCAGGGACGGAAUGCCUGGUCUUGAGCAACCUCCCACUGCUGGAGUGCGA`: “RBNS enrichment (R)” 0.426.
`GCUGAGAGCUUUUAGUAAAAAUAGGCAUUUAUUUAAUAUUUCCCUGUUCCUUUGGCAAGCUUUAUCAGUAGCUUAACAACAGAAGAGAAGAGUUCAAACAGAUGAUGUUU`: “RBNS enrichment (R)” 0.654.
`CACCCCUUAACUUUAAAAGAAUGUGAAAAACUAGCAUCAUAGUGCAUAUAAAUACUCAACCACAUUUCAGCUUAAGCUUCUAAUUUCUCAAGAAGUUGAAACAGUUAGUU` — result for “RBNS enrichment (R)”: 0.873.
`AGUGUAAUAUUGUAUUAAUUUGUUAAAUUCUAAACUUGAAUUUCAAUAAAAUUUUAAAGCUAAUUGUGUUUUUGUGUAACUUUGUGGCCAACUGAUUUUGUAAGUGGUGC` — result for “RBNS enrichment (R)”: 1.49.
`CGCAGCCGUGGACGAUUCUCCAGGACUCUUUUUUUACCUUGAGCACUUGCCUCGUGAGACUUCAUAGAACAGUGGUUUACUGUCCCCCCCUUCUCACCUCCUCAUUCUCU`: “RBNS enrichment (R)” 0.505.
Under “RBNS enrichment (R)”, `CAGAGUGGGCAGGGAAGUGGCUUCAGCCCCUGAGACCCAGAAUAAUAACUAAUCAGCUAGUGUUGUGCCAGCUGUCAUGUACACUGUGGUAUUCUUCAUAGCUCUGAGUU` is recorded as 0.425.
`GGUUCUCGUAAUCGCUCGGUGGGAAAUCAUGGCUCUGCCGUCCUGCCUCUCUGUGGCCGUGGGUUCACGUGGCCUCUGCGGUGAGUCUCCAAGUUUCUGCCUAGGCGCCU`: “RBNS enrichment (R)” 0.176.
`UAGAGAGAUCCCAGCCCUGGGAGGAGAAGGAAGUUGGGUCAGGCCUCGGUACAAAGGGAAAACACUGAAUUGGCCCCAAAACACAGGAGCAAGCGUGUGGAUUUCCAUUG`: “RBNS enrichment (R)” 2.09.

Series 5 — read-out: enzyme activity; action: inhibitor; tested at: 20 µM
Target: Replicase polyprotein 1ab, polymerase (rep, Severe acute respiratory syndrome coronavirus 2, UniProt P0DTD1)
With `CC(C)[C@@H]1C(=O)N(S(C)(=O)=O)[C@@H]2CCN(C(=O)/C=C/CN3CCCCC3)[C@H]21` the inhibition was -1.06%.
For `CCCCCCOc1ccccc1C(N)=O`, the inhibition was 3.62%.
The inhibition of `CC(C)(C)c1cc(C(C)(C)C)c(NC(=O)c2c[nH]c3ccccc3c2=O)cc1O` is reported as 1.85%.
`CC1=C(C(=O)O)N2C(=O)[C@@H](NC(=O)[C@H](N)c3ccc(O)cc3)[C@H]2SC1` has an inhibition of -0.74%.
`CC(=O)N1CCC(NC(=O)c2ccc(F)cc2)CC1` has an inhibition of 1.18%.
`CN/C(=N\CCSCc1nc[nH]c1C)NC#N` has an inhibition of 25.6%.
For `C[C@H](Oc1cc(-c2cnn(C3CCNCC3)c2)cnc1N)c1c(Cl)ccc(F)c1Cl`, the inhibition was 18.8%.
For `CCC1=C[C@@H]2CN(C1)Cc1c([nH]c3ccccc13)[C@@](C(=O)OC)(c1cc3c(cc1OC)N(C)[C@H]1[C@@](O)(C(=O)OC)[C@H](OC(C)=O)[C@]4(CC)C=CCN5CC[C@]31[C@@H]54)C2`, the inhibition was 1.35%.
`CCN(C(=O)c1c(O)c2c(Cl)cccc2n(C)c1=O)c1ccccc1` has an inhibition of 0.27%.
`Cc1ccc(-c2cn3c4c(sc3n2)CCCC4)cc1` gave an inhibition of -1.41%.
With `CCCCOc1cc(CC2CNC(=O)N2)ccc1OC` (stereo not shown) the inhibition was -0.08%.
With `CCn1c(-c2nonc2N)nc2c(C#CC(C)(C)O)ncc(OC[C@H]3CCCNC3)c21` the inhibition was 1.62%.
`CC(C)(C)c1cc(NC(=O)Nc2ccc(-c3cn4c(n3)sc3cc(OCCN5CCOCC5)ccc34)cc2)no1` has an inhibition of -1.82%.
For `NC(=O)N1C(=O)/C(=C(\O)c2cccs2)c2cc(Cl)ccc21`, the inhibition was -7.35%.
`CN(C(=O)Cc1ccc(Cl)c(Cl)c1)[C@H](CN1CCCC1)c1ccccc1` gave an inhibition of -1.01%.
`CC[N+](C)(CC)CCOC(=O)C(O)(c1ccccc1)C1CCCCC1` (stereo not shown) has an inhibition of -3.54%.
For `COc1ccc(N2CCOCC2)c2sc(NC(=O)N3CCC(C)(O)CC3)nc12`, the inhibition was -1.23%.
The inhibition of `O=C(O)C1(c2ccc(-c3ccc(Cl)c(Cl)c3)c(F)c2)CC1` is reported as 1.47%.
For `NC(N)=NC(N)=Nc1cccc(Cl)c1`, the inhibition was -3.65%.
For `O=C(O)CSCC(=O)NC1CCSC1=O` (stereo not shown), the inhibition was 24.8%.
`COc1cc2c(=O)c(-c3ccc(O)cc3)coc2cc1O` has an inhibition of 2.36%.
For `CC[N+](CC)(CCCNC1=CC(=O)C(NCCC[N+](CC)(CC)Cc2ccccc2)=CC1=O)Cc1ccccc1`, the inhibition was -3.93%.
With `O=C(O)c1ccc(/C=C2\SC(=S)N(c3cccc(C(F)(F)F)c3)C2=O)cc1` the inhibition was -2.42%.
`OC[C@@H](O)[C@@H](O[C@@H]1O[C@H](CO)[C@H](O)[C@H](O)[C@H]1O)[C@H](O)[C@@H](O)CO` has an inhibition of -9.71%.

Series 6 — method: RNA Bind-n-Seq; molecule type: RNA; matrix: in vitro; tested at: 200 nM; notes: whole 134-nt RNA, ends assumed; with: 150 mM LiCl; baseline: input library; reading: higher = stronger binding; all molecules: 7-deaza-guanosine replaces G
Target: Ras GTPase-activating protein-binding protein 1, full length (G3BP1, Homo sapiens, UniProt Q13283)
Sequence of UniProt Q13283 (whole entry, looked up): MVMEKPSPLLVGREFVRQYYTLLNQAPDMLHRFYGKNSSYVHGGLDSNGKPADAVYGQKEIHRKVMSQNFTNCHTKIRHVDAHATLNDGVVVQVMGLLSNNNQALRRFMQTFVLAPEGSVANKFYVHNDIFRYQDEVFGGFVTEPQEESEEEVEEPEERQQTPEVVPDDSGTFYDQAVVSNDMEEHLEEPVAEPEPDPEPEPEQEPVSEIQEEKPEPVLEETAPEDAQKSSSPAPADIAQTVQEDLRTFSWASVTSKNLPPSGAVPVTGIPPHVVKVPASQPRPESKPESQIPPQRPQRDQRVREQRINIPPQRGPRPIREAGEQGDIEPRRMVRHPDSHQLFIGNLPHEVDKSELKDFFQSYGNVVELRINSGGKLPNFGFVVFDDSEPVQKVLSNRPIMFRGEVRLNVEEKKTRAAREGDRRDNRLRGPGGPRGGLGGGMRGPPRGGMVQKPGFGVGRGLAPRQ
For `GGGAGUUCUACAGUCCGACGAUCUGGGAGUUGGAUUUUGUUUAUUUUUUUAGCUCAUUUCCAGGGGUGGGAAUUUUUUUUUAAUAUGUGUCAUGAAUAAAGUUGUUUUUGAAAUGGAAUUCUCGGGUGUCAAGG`, the log2 enrichment was 0.276.
`GGGAGUUCUACAGUCCGACGAUCAAGUCCUGUGCUACACAUCGUAUGUACCGAAUCGGGUUUUUUUGGGAGGGUUUGGGAAAGUAUUAUGUUACGCCGUUCGGAUCUGCACUUUGGAAUUCUCGGGUGUCAAGG` has a log2 enrichment of -0.545.
For `GGGAGUUCUACAGUCCGACGAUCCUGUGCUACACAUCGUAUGUACCGAAUCAAAUUUUUUUAAAUUUUUUUAAAUUUUUUUAAAAAAGUAUUAUGUUACGCCGUUCGGAUCUGUGGAAUUCUCGGGUGUCAAGG`, the log2 enrichment was -2.47.
`GGGAGUUCUACAGUCCGACGAUCCUCAAGUCCUGUGCUACACAUCGUAUGUACCGAAUCGGGGUUGGUUGGUUGGGGAAAGUAUUAUGUUACGCCGUUCGGAUCUGCACUUCCUGGAAUUCUCGGGUGUCAAGG` has a log2 enrichment of 0.148.

Some of these lines once more (series 1):
`COC(=O)N[C@H](C(=O)N[C@@H](Cc1ccccc1)[C@@H](O)CN(Cc1ccc(-c2ccccn2)cc1)NC(=O)[C@@H](NC(=O)OC)C(C)(C)C)C(C)(C)C.O=S(=O)(O)O` gave a cell number of 96.2%.
The cell number of `CCC(CC)[C@H](NC(C)=O)[C@@H]1[C@H](O)[C@@H](C(=O)O)C[C@H]1NC(=N)N.O.O.O` is reported as 94.2%.
With `C=CCN1CC[C@]23c4c5ccc(O)c4O[C@H]2[C@@H](OCCOCCOCCOCCOCCOCCOCCOC)CC[C@@]3(O)[C@H]1C5.O=C(O)C(=O)O` the cell number was 101%.
For `Cc1nc2n(c(=O)c1CCN1CCC(c3noc4cc(F)ccc34)CC1)CCCC2`, the cell number was 99.5%.
With `O=C([O-])/C=C/C(=O)[O-].[Fe+2]` the cell number was 92.6%.
